Measurements of several laboratories.
A part holds a random share of what one study measured.
Chain of UniProt O96017 (whole entry, looked up): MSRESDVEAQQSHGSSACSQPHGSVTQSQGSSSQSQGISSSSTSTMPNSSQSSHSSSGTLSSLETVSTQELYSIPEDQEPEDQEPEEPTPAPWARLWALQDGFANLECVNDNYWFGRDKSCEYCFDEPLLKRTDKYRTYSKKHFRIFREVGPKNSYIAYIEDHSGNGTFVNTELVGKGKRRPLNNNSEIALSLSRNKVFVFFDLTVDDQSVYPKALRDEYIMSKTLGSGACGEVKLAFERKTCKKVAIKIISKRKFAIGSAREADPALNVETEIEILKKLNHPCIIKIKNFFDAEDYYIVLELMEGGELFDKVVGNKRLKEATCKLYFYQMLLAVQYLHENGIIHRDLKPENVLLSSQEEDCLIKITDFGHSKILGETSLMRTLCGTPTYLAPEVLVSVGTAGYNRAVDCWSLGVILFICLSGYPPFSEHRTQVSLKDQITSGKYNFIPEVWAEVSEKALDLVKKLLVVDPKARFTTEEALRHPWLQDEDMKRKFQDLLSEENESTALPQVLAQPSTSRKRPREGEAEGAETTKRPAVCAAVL
Chain of UniProt Q15349 (whole entry, looked up): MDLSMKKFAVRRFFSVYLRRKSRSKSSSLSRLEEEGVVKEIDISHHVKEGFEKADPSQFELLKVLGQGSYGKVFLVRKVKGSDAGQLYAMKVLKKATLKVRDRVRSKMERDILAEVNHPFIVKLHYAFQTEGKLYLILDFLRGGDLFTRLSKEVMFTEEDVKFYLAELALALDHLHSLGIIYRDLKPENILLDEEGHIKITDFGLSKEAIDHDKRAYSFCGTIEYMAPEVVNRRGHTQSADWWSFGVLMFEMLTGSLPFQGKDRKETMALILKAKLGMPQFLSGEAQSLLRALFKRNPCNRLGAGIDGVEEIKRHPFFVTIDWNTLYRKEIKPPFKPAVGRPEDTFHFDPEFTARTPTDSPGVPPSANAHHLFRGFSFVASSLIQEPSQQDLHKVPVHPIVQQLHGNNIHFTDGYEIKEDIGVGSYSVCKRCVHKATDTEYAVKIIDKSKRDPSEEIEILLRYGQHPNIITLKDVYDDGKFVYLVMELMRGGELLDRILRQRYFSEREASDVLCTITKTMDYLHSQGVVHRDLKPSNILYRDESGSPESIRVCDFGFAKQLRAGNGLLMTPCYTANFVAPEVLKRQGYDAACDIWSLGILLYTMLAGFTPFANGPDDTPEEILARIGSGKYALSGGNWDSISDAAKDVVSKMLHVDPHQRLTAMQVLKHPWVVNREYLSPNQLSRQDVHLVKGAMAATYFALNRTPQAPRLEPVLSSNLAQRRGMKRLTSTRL
Chain of UniProt Q96PY6 (whole entry, looked up): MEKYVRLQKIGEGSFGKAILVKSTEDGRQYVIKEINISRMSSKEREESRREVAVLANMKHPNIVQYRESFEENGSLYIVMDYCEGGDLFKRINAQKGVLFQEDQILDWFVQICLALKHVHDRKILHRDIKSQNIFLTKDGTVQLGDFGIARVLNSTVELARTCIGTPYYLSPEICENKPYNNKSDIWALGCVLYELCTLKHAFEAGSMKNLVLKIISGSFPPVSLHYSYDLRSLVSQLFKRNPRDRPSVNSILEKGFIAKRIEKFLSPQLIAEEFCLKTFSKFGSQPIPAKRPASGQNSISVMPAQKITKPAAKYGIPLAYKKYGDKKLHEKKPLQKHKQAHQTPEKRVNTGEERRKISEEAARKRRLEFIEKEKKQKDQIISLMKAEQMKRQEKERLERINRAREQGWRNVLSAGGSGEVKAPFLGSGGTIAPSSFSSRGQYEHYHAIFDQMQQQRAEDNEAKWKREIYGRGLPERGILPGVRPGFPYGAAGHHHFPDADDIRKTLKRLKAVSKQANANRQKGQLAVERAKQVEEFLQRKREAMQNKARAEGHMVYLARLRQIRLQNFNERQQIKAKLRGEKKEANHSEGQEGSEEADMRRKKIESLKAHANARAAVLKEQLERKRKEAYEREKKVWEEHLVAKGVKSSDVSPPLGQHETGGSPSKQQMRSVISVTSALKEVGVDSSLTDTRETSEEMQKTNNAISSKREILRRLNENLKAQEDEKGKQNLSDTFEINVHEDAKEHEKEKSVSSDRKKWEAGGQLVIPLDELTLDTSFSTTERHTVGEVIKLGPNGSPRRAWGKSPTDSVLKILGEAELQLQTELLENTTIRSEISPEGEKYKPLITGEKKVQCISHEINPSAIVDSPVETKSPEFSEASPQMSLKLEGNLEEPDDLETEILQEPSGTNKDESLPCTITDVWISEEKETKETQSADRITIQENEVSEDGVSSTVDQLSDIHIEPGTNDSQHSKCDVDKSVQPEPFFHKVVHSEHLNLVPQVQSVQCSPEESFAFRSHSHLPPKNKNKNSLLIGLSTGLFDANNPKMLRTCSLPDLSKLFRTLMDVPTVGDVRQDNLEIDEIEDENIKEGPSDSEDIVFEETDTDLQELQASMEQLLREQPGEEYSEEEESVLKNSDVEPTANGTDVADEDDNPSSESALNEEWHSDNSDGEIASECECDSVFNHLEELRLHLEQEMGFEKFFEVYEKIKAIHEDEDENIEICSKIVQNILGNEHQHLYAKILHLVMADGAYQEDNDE
Chain of UniProt P49137 (whole entry, looked up): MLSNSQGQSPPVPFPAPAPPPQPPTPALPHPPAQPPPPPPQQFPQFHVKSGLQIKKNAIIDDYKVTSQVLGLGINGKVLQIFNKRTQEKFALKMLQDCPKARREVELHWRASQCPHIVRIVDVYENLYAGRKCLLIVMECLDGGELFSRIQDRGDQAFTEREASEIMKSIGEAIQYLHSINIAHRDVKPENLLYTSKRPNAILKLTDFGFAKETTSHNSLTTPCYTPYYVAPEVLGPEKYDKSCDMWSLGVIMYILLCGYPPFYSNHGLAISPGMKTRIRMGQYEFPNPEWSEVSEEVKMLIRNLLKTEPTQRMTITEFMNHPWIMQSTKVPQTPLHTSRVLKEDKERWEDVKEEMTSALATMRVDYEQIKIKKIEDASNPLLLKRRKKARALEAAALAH
Chain of UniProt Q9Y5N1 (whole entry, looked up): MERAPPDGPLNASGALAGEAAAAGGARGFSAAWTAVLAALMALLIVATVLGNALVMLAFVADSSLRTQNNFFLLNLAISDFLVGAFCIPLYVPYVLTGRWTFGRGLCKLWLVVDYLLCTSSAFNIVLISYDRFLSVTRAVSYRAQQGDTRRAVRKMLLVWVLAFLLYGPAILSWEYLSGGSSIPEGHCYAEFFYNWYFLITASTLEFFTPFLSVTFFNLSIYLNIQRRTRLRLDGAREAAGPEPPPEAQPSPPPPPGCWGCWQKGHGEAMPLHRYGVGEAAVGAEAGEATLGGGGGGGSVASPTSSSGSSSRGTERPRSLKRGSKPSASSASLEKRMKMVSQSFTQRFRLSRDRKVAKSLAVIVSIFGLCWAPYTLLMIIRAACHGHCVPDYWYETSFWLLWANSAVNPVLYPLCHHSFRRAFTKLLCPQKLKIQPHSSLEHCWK
Chain of UniProt Q02763 (whole entry, looked up): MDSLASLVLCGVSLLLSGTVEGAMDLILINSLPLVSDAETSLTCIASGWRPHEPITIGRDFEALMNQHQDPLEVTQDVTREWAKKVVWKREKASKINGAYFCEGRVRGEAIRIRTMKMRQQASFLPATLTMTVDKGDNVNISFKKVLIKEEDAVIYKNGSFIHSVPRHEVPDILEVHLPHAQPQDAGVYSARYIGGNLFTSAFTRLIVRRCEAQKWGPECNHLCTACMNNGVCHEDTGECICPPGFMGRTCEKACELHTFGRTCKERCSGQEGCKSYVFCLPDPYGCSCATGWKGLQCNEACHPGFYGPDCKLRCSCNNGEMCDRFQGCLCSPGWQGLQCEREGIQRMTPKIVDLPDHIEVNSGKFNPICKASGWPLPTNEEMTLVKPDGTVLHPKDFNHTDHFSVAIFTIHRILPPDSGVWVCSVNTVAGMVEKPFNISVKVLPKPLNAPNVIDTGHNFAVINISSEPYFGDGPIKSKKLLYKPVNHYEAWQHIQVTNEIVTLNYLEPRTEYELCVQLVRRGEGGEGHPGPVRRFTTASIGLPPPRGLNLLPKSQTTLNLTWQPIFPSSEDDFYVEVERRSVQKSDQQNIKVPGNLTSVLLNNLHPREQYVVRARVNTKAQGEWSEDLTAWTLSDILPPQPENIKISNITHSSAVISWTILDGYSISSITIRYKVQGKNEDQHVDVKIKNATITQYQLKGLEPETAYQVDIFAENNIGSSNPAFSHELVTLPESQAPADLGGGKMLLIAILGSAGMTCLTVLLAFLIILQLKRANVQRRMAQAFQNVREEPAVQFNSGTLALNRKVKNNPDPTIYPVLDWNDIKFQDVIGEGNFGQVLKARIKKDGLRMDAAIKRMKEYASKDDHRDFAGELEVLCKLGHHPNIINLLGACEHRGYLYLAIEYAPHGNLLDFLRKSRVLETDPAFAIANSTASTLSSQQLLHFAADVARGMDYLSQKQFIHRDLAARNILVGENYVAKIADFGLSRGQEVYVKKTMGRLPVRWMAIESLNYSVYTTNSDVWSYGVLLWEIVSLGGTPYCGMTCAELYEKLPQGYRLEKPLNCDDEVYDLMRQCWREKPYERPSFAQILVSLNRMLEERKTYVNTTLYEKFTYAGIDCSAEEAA

Set 1
Target: Calcium/calmodulin-dependent protein kinase type II subunit alpha (CAMK2A, Homo sapiens, UniProt Q9UQM7)
Chain of UniProt Q9UQM7 (whole entry, looked up): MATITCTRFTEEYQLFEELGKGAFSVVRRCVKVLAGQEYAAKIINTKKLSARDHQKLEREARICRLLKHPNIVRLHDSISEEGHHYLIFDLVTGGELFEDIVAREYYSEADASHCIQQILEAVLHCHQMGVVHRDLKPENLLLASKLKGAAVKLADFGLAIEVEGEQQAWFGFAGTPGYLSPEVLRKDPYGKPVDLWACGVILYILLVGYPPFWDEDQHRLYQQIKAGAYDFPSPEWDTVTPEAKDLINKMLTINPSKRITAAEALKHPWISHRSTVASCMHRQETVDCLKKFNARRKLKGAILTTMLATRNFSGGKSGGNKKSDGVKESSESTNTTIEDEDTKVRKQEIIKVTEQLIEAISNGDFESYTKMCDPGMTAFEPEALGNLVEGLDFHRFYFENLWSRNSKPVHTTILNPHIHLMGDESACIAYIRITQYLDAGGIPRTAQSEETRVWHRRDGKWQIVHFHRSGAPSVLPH
Effect on: enzyme activity
Mode: inhibitor
Tested at: 10 µM
| Compound | inhibition |
| --- | --- |
| C=C1C(=O)O[C@H]2C[C@@H](C)[C@@H]3C=CC(=O)[C@@]3(C)[C@@H](OC(C)=O)[C@H]12 | 13% |
| O=C1C[C@@H](c2ccc(O)cc2)Oc2cc(O)ccc21 | -68% |
| CC(C)(C)OC(=O)N[C@H]1CCCCC/C=C\[C@@H]2C[C@@]2(C(=O)NS(=O)(=O)C2CC2)NC(=O)[C@@H]2C[C@@H](OC(=O)N3Cc4cccc(F)c4C3)CN2C1=O | -1% |

Set 2
SMILES: C[C@H]1CC[C@H](n2c3cnccc3c3cnc(Nc4ccc5c(n4)CCN(C(=O)CO)C5)nc32)CC1
Effect on: cell-free assay
Tested at: 1 µM
| target | remaining signal |
| --- | --- |
| PRKD1 (Homo sapiens, UniProt Q15139) | 100% |
| Tyrosine-protein kinase JAK1, JH1 (JAK1, Homo sapiens, UniProt P23458) | 100% |
| NEK5 (Homo sapiens, UniProt Q6P3R8) | 70% |
| CHEK2 (Homo sapiens, UniProt O96017) | 91% |
| PAK3 (Homo sapiens, UniProt O75914) | 26% |

Set 3
SMILES: CS(=O)(=O)c1cc(C2(NC(=O)c3cncc4c3cnn4-c3ccc(F)cc3)CC2)ccn1
Effect on: cell-free assay
Tested at: 10 µM
| target | inhibition [%] |
| --- | --- |
| ADRA2A (Homo sapiens, UniProt P08913) | -2.44 |
| HRH3 (Homo sapiens, UniProt Q9Y5N1) | 29.6 |
| HRH4 (Homo sapiens, UniProt Q9H3N8) | 1.36 |
| HRH1 (Homo sapiens, UniProt P35367) | 11.2 |
| HRH2 (Homo sapiens, UniProt P25021) | 3.34 |

Set 4
Structure (SMILES): CC(C)n1cnc2c(Nc3cccc(Cl)c3)nc(NCCO)nc21
Effect on: enzyme activity
Mode: inhibitor
Tested at: 0.5 µM
Baseline: control
| target | remaining activity [%] |
| --- | --- |
| CSNK1G3 (Homo sapiens, UniProt Q9Y6M4) | 6.89 |
| MAPKAPK2 (Homo sapiens, UniProt P49137) | 98.9 |
| TEK (Homo sapiens, UniProt Q02763) | 97.4 |
| NEK6 (Homo sapiens, UniProt Q9HC98) | 101 |
| NEK1 (Homo sapiens, UniProt Q96PY6) | 90.4 |
| RPS6KA2 (Homo sapiens, UniProt Q15349) | 62.1 |
| JAK3 (Homo sapiens, UniProt P52333) | 24.7 |
| EPHA3 (Homo sapiens, UniProt P29320) | 90.3 |
| FGFR3 (Homo sapiens, UniProt P22607) | 95.1 |
| MAP2K2 (Homo sapiens, UniProt P36507) | 97.6 |
| ULK2 (Homo sapiens, UniProt Q8IYT8) | 89 |
| ABL2 (Homo sapiens, UniProt P42684) | 60.7 |
| MST1R (Homo sapiens, UniProt Q04912) | 101 |
| MAP3K14 (Homo sapiens, UniProt Q99558) | 97.4 |

Set 5
Cell line: A-375
Tested at: 100 µM
Time: 18 h
| SMILES | viability [%] |
| --- | --- |
| CC1(C)O[C@H]2CC(=O)OC[C@]23[C@H]2CC[C@@]4(C)[C@H](c5ccoc5)OC(=O)[C@H]5O[C@]54[C@]2(C)C(=O)C[C@@H]13 | 96.9 |
| Cc1ccc(C(=O)C(C)CN2CCCCC2)cc1 (stereo not drawn) | 94.5 |
| CN1CCN(CCCN2c3ccccc3Sc3ccc(C(F)(F)F)cc32)CC1 | 7.87 |

For quick reference, copied from above (set 5):
| SMILES | viability [%] |
| --- | --- |
| CC1(C)O[C@H]2CC(=O)OC[C@]23[C@H]2CC[C@@]4(C)[C@H](c5ccoc5)OC(=O)[C@H]5O[C@]54[C@]2(C)C(=O)C[C@@H]13 | 96.9 |
| Cc1ccc(C(=O)C(C)CN2CCCCC2)cc1 (stereo not drawn) | 94.5 |
| CN1CCN(CCCN2c3ccccc3Sc3ccc(C(F)(F)F)cc32)CC1 | 7.87 |
